Measured values collected from several papers.
Compare with care: the assays were run in different laboratories. Numbers after ± are the reported error.

SMILES	assay	system	conditions	how to read	endpoint	result
Fc1ccc(OCC2CN(Cc3cn4ccccc4n3)CCC2(F)F)cc1F (centres unmarked)	equilibrium dialysis	mouse plasma	–	–	fu	0.107
CC(C(=O)O)n1nc(Cn2cc3cc(OCC[18F])c(Cl)cc3n2)c2ccccc2c1=O (racemic)	–	rat, kidney	2 h	–	tracer uptake	0.25 %ID/g
O=C(Nc1cnccc1-c1ccc([18F])nc1)c1ccnc(NC(=O)C2CC2)c1	–	FVB/NJ mice (both sexes), small intestine	intravenous, dose not given, 120 min, together with: tariquidar 15 mg/kg i.v. pre-dose	–	SUV	2.1
C/C(N)=N/C(=N\S(=O)(=O)c1ccc(C(F)(F)F)cc1)N1C[C@H](c2ccccc2)C(c2ccc(Cl)cc2)=N1	–	beagle dog, plasma	oral, 24 mg/kg	–	AUC(0-inf)	28400 ng·h/mL
O=C(CC(F)(F)F)Nc1ccc([C@H]2[C@@H](F)[C@@H](F)C[C@@H](F)[C@H]2F)cc1	liver microsome stability	rat liver microsomes	1 µM	–	hepatic clearance	11 mL/min/kg
COC1C(c2ccc(Cl)c(Cc3ccc(OC4CCOC4)cc3)c2)OC(CO)C(O)C1O (centres unmarked)	–	mouse plasma	1 µM, 5 h	–	unbound fraction	0.067
O=C(Nc1ccc([C@H]2[C@@H](F)[C@@H](F)C[C@@H](F)[C@H]2F)cc1)C1CC1(F)F (some centres unmarked)	hepatocyte stability	cryopreserved mouse hepatocytes	1 µM	–	hepatic clearance	52 mL/min/kg
OC1(C(F)(F)F)CCN(c2nc(Nc3ccnc(C(F)(F)F)c3)nc(-c3cccc(C(F)(F)F)n3)n2)C1 (centres unmarked)	–	monkey, plasma	oral, 10 mg/kg	–	Cmax	2490 ± 587 ng/mL
CCN(CC)c1ccc2c(c1)O[B-]1(c3ccccc3)OC(=O)C(c3ccccc3)=N[N+]1=C2C (centres unmarked)	–	toluene	–	–	fluorescence lifetime	2.67 ns
C=CC(=O)Nc1cc(Nc2nccc(-c3c[nH]c4ccccc34)n2)c(OC)cc1N(C)CCN(C)C	storage stability	human plasma samples	30 d, -80 °C, LQC level	reference: nominal concentration	percentage recovery	13.3%
C=C1C[C@]2(C(=O)OC)C=C(C(=O)Nc3cccc(C(=O)Nc4ccc(Nc5nccc(-c6cccnc6)n5)c(C)c4)c3)C(=O)[C@H]1C2	–	Wistar rat, male, plasma	10 µM, 20 min	–	compound remaining	1.71%
Nc1ncc(-c2ccc(C3CCCCC3)cc2)cn1	hepatocyte stability	cryopreserved rat hepatocytes	1 µM	–	hepatic clearance	45 mL/min/kg
COc1cccc(OC)c1-c1cc(C(=O)NC2(C(=O)O)C3CC4CC(C3)CC2C4)nn1-c1ccc(C(=O)N(C)CCOCCOCCN(C)C(=O)[C@H](CCCCNC(=O)[C@H](CC(C)C)NC(=O)C2OC2C(=O)O)NC(=O)CN2CCN(CC(=O)[O-])CCN(CC(=O)[O-])CCN(CC(=O)[O-])CC2)cc1C(C)C.[177Lu+3] (mixture of isomers)	–	mouse, HT-29 xenograft	24 h post injection, biodistribution	reference: tumour over blood uptake	tumour-to-blood ratio	4.8
O=C(NCc1cccc(Cl)c1)c1ccc(C2CCCCC2)cc1	hepatocyte stability	cryopreserved rat hepatocytes	1 µM	–	hepatic clearance	43 mL/min/kg
C=C(NC(=O)c1csc(-c2nc3c(cc2O)-c2nc(cs2)C(=O)NC(C(C)O)C(=O)NC(=C(C)OC)c2nc(cs2)C(=O)NC2c4nc(cs4)C(=O)NC(COC(=O)c4c5c6c(cccc6n4O)COC(=O)C(OC4CC(C)(O)C(N(C)C)C(C)O4)C2OC5)c2nc-3cs2)n1)C(N)=O (centres unmarked)	–	Sprague-Dawley rat, male, plasma	intravenous infusion, 6 mg/kg, multiple doses, day 7	–	MRT(0-last)	2.1 h
c1cc(C2CCCCC2)ccc1-c1ccc(N2CCCC2)nc1	liver microsome stability	rat liver microsomes	1 µM	–	hepatic clearance	32 mL/min/kg
O=C(N1CCCCC1)C12CC(c3ccccc3)(C1)C2(Br)Br	metabolic stability	human, liver microsomes	2 µM, 7 min, pH 7.4	–	compound remaining	88%

Excerpt of the above:
SMILES	assay	system	conditions	how to read	endpoint	result
COc1cccc(OC)c1-c1cc(C(=O)NC2(C(=O)O)C3CC4CC(C3)CC2C4)nn1-c1ccc(C(=O)N(C)CCOCCOCCN(C)C(=O)[C@H](CCCCNC(=O)[C@H](CC(C)C)NC(=O)C2OC2C(=O)O)NC(=O)CN2CCN(CC(=O)[O-])CCN(CC(=O)[O-])CCN(CC(=O)[O-])CC2)cc1C(C)C.[177Lu+3] (mixture of isomers)	–	mouse, HT-29 xenograft	24 h post injection, biodistribution	reference: tumour over blood uptake	tumour-to-blood ratio	4.8
